{"data": "Results gathered from unrelated publications", "note": "Numbered parts are unrelated; each lists some results of a single study. Values joined by “and” are separate records of one study, mostly repeats; a detail may differ.", "UniProt Q16539, sequence (whole entry, looked up)": "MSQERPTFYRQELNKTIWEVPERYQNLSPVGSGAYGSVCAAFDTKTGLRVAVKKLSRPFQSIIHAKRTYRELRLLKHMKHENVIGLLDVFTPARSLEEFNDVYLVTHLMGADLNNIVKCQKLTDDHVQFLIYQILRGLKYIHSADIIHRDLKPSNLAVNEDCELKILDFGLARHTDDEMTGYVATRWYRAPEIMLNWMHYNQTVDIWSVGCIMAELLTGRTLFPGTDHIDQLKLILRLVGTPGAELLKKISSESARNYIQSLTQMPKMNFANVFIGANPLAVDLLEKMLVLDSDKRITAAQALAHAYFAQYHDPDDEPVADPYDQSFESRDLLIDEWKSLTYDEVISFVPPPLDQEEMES", "UniProt Q96J92, sequence (whole entry, looked up)": "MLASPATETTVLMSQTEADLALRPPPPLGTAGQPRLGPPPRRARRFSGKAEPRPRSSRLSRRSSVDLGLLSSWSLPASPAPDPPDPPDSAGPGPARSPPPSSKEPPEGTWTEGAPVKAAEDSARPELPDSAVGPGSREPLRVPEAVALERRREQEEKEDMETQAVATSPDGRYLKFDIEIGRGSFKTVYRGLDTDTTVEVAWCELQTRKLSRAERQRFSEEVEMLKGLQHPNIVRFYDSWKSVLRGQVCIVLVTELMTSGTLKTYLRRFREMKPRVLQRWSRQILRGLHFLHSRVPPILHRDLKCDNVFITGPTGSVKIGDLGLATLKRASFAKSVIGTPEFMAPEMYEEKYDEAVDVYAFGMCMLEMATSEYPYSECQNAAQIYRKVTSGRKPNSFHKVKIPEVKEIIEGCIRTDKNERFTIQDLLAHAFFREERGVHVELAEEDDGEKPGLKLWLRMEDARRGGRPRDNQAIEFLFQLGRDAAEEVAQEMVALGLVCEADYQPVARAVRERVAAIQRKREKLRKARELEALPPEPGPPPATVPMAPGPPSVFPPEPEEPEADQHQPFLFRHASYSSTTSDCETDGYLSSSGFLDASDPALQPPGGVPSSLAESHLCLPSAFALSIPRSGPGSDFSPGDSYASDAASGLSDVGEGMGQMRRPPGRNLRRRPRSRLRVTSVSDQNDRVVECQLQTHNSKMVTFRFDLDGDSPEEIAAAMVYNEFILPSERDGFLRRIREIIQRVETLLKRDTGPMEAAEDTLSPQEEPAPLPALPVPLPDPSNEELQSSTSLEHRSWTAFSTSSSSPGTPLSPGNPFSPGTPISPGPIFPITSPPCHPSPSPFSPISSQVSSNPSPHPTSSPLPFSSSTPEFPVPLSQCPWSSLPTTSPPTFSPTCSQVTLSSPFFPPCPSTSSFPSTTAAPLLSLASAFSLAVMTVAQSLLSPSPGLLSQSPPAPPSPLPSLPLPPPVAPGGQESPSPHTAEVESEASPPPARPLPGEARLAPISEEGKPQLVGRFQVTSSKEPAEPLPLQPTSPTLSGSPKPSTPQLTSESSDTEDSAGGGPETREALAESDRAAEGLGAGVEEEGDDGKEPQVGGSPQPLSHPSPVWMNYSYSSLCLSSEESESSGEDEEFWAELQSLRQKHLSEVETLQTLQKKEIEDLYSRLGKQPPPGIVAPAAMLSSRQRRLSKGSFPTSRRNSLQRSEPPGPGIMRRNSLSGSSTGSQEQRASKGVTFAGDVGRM", "UniProt P22455, sequence (whole entry, looked up)": "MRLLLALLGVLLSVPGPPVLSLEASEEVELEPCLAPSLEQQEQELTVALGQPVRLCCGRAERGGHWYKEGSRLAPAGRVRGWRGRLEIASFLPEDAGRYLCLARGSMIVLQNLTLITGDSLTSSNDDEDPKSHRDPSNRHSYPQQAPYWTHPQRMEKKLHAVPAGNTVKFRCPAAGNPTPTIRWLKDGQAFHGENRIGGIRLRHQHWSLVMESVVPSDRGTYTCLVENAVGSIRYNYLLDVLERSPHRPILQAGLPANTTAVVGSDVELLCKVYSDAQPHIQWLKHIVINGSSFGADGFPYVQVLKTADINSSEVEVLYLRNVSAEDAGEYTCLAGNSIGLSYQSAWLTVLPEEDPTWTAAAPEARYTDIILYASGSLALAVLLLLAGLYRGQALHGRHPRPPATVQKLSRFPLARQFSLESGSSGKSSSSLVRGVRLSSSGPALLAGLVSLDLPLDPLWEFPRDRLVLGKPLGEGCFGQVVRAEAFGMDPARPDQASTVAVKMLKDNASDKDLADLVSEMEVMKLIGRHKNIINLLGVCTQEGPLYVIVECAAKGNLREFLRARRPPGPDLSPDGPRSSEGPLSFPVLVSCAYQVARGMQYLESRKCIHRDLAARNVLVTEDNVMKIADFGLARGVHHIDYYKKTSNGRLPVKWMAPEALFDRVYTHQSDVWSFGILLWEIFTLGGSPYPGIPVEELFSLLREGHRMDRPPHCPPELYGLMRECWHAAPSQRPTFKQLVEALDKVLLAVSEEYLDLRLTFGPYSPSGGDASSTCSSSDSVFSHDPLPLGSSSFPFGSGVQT"}
{"data": "Study 1", "SMILES": "O=C(NCc1ncc(C(F)(F)F)cc1Cl)c1ccc2c(c1)C1(CCS(=O)(=O)CC1)[C@@H](C1CC1)N2S(=O)(=O)c1ccc(F)cc1", "read-out": "cell-free assay", "technique": "competition with immobilised ligand", "tested at": "1 µM"}
{"target": "FLT3 (Homo sapiens, UniProt P36888, ITD)", "remaining binding": "79%"}
{"target": "CILK1 (Homo sapiens, UniProt Q9UPZ9)", "remaining binding": "97%"}
{"target": "MKNK1 (Homo sapiens, UniProt Q9BUB5)", "remaining binding": "78%"}
{"target": "EGFR (Homo sapiens, UniProt P00533, L858R/T790M)", "remaining binding": "75%"}
{"target": "MAPK4 (Homo sapiens, UniProt P31152)", "remaining binding": "89%"}
{"target": "TAOK2 (Homo sapiens, UniProt Q9UL54)", "remaining binding": "64%"}
{"target": "VRK2 (Homo sapiens, UniProt Q86Y07)", "remaining binding": "98%"}
{"target": "Tyrosine-protein kinase ABL1, phosphorylated (ABL1, Homo sapiens, UniProt P00519, Y253F)", "remaining binding": "100%"}
{"target": "SRPK2 (Homo sapiens, UniProt P78362)", "remaining binding": "100%"}
{"target": "MET (Homo sapiens, UniProt P08581, Y1235D)", "remaining binding": "100%"}
{"target": "MAPK14 (Homo sapiens, UniProt Q16539)", "remaining binding": "100%"}
{"target": "CDKL5 (Homo sapiens, UniProt O76039)", "remaining binding": "67%"}
{"target": "TBK1 (Homo sapiens, UniProt Q9UHD2)", "remaining binding": "84%"}
{"target": "CSNK1E (Homo sapiens, UniProt P49674)", "remaining binding": "100%"}
{"target": "Ribosomal protein S6 kinase alpha-2, N-terminal kinase domain (RPS6KA2, Homo sapiens, UniProt Q15349)", "remaining binding": "93%"}
{"target": "TEC (Homo sapiens, UniProt P42680)", "remaining binding": "100%"}
{"target": "WNK4 (Homo sapiens, UniProt Q96J92)", "remaining binding": "100%"}
{"target": "MET (Homo sapiens, UniProt P08581, M1250T)", "remaining binding": "100%"}
{"data": "Study 2", "species": "human", "matrix": "microsomes or S9", "tested at": "2 µM", "time": "0.5 h"}
{"Compound": "Cc1nc(-c2ccncc2)nc(NCCCCn2ccccc2=O)c1C", "remaining compound": "0.263%"}
{"Compound": "COC(=O)CCN1C(=O)c2ccncc2/C1=C\\c1ccccc1", "remaining compound": "0.0221%"}
{"Compound": "CCn1cnc2c(Nc3ccc(OC)c(Cl)c3)nc(Cl)nc21", "remaining compound": "44%"}
{"Compound": "COC(=O)c1c(OC)cc2c(c1C)Oc1c(Cl)c(O)c(Cl)c(C)c1C(=O)O2", "remaining compound": "77.8%"}
{"Compound": "CCOc1ccccc1CCCNS(=O)(=O)c1ccc(C)cc1", "remaining compound": "< 1%"}
{"data": "Study 3", "target": "DNA polymerase theta, helicase domain (POLQ, Homo sapiens, UniProt O75417)", "action": "inhibitor", "tested at": "concentration not given", "setting": "absolute value", "added": "with minus without ssDNA", "UniProt O75417, sequence (whole entry, looked up)": "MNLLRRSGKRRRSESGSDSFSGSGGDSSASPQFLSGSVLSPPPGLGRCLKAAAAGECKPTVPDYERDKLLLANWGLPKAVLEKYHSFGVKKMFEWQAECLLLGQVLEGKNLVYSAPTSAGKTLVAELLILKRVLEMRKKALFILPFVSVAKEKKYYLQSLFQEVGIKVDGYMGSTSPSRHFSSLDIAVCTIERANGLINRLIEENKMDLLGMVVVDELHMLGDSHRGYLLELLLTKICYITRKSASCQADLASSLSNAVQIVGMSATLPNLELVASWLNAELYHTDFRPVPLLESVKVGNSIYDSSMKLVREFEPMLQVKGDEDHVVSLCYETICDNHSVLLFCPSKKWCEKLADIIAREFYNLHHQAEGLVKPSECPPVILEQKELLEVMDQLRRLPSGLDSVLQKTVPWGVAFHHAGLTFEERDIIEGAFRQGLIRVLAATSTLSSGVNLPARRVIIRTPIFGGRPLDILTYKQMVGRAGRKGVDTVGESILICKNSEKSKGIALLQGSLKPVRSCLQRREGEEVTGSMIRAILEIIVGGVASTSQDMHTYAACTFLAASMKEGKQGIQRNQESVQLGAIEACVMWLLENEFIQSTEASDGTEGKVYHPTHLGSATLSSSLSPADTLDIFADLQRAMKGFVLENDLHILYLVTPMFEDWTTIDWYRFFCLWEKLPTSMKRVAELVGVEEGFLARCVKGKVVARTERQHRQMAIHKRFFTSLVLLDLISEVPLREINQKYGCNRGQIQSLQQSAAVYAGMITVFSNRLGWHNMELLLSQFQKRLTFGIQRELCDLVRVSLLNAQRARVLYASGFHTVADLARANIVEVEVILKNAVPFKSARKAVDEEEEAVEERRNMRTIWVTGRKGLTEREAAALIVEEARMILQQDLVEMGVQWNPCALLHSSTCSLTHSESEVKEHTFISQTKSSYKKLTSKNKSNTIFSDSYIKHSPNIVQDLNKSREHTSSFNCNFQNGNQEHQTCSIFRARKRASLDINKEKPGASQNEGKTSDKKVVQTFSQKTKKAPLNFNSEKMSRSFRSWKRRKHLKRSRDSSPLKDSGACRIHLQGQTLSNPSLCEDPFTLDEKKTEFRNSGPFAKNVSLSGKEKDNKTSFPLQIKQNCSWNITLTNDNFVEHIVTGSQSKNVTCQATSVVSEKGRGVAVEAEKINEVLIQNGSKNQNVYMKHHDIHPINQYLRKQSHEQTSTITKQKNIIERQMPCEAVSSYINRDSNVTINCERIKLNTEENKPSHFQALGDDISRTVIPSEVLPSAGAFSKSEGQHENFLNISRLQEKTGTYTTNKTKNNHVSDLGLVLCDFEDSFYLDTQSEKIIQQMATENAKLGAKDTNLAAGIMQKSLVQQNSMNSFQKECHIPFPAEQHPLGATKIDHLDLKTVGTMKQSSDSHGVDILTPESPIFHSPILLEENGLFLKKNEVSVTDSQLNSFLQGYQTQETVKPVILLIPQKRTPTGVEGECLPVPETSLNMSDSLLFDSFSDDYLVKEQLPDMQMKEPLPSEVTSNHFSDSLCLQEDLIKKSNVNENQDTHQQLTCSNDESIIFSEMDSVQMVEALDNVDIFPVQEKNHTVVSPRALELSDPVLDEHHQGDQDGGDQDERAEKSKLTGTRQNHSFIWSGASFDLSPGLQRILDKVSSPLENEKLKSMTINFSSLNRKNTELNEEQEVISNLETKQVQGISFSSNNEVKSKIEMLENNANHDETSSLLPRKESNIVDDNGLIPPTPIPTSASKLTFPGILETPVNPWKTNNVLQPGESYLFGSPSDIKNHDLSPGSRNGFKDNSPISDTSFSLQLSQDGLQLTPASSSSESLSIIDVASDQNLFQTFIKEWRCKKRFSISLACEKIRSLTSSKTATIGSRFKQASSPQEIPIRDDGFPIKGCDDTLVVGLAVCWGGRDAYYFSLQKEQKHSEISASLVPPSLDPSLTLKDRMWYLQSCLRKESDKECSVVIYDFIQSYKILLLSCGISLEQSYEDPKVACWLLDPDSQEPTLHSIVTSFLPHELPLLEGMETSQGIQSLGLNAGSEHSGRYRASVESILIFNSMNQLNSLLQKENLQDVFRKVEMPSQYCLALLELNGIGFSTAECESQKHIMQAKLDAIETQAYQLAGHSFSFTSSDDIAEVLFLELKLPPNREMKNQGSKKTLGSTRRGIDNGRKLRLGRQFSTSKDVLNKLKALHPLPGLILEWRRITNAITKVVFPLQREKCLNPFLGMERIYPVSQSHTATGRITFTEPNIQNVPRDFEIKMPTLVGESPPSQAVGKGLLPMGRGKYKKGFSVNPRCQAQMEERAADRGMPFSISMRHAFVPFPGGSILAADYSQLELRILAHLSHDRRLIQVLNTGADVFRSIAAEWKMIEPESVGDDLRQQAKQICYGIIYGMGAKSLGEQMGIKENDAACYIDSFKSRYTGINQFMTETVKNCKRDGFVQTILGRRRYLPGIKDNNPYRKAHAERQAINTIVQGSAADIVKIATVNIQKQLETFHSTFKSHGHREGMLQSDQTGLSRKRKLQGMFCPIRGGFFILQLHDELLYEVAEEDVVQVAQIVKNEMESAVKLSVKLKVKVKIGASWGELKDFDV"}
{"Compound": "Cc1ccc(C(=O)Nc2ccc(S(=O)(=O)[O-])c3cc(S(=O)(=O)[O-])cc(S(=O)(=O)[O-])c23)cc1NC(=O)c1cccc(NC(=O)Nc2cccc(C(=O)Nc3cc(C(=O)Nc4ccc(S(=O)(=O)[O-])c5cc(S(=O)(=O)[O-])cc(S(=O)(=O)[O-])c45)ccc3C)c2)c1.[Na+].[Na+].[Na+].[Na+].[Na+].[Na+]", "difference in remaining activity": "11.9%"}
{"Compound": "CCOc1ccc2nc3cc(N)ccc3c(N)c2c1", "difference in remaining activity": "65.9%"}
{"Compound": "CC[N+](C)(CC)CCC[n+]1c(-c2ccccc2)c2cc(N)ccc2c2ccc(N)cc21", "difference in remaining activity": "68.8%"}
{"Compound": "CC(=O)[C@]1(O)Cc2c(O)c3c(c(O)c2[C@@H](O[C@H]2C[C@H](N)[C@H](O)[C@H](C)O2)C1)C(=O)c1ccccc1C3=O", "difference in remaining activity": "42.2% and 41%"}
{"Compound": "COc1cccc(C2C3=C(NN/C3=C3/C=CC=CC3=O)C(=O)N2CCc2ccc(OC)c(OC)c2)c1 (stereo not shown)", "difference in remaining activity": "15.1%"}
{"data": "Study 4", "SMILES": "Cc1sc(C(=O)NC2COC2)cc1-n1cc(NC(=O)Nc2c(F)cccc2Cl)cn1", "read-out": "enzyme activity", "tested at": "10 µM"}
{"target": "DDR1 (Homo sapiens, UniProt Q08345)", "how to read": "relative to: untreated control", "remaining activity [%]": 83.4}
{"target": "SIK1 (Homo sapiens, UniProt P57059)", "test": "inhibitor", "remaining activity [%]": 99.8}
{"target": "TGFBR1 (Homo sapiens, UniProt P36897)", "how to read": "relative to: untreated control", "remaining activity [%]": 104}
{"target": "FGFR4 (Homo sapiens, UniProt P22455)", "how to read": "relative to: untreated control", "remaining activity [%]": 94.7}
{"target": "MAPK14 (Homo sapiens, UniProt Q16539)", "how to read": "relative to: untreated control", "remaining activity [%]": 86}
{"target": "PRKACA (Homo sapiens, UniProt P17612)", "how to read": "relative to: untreated control", "remaining activity [%]": 92.5}
{"data": "Study 5", "Compound": "COc1cc(C(=O)N2CCC(N3CCN(C)CC3)CC2)ccc1Nc1ncc2c(n1)N(C)c1ccccc1C(=O)N2C"}
{"target or system": "NEK3 human", "test": "KiNativ profiling", "test system": "human PBMC lysate", "setting": "concentration not given, ADP probe, activation loop site", "inhibition [%]": -7.8}
{"target or system": "human PBMC", "test": "probe labeling, inhibitor, KiNativ profiling, item: DVkPSNILVNSR", "test system": "cell lysate", "setting": "1 µM, LYS2 site, added: ADP acyl-phosphate probe", "inhibition [%]": 0.7}
{"target or system": "SGK3 (mouse)", "test": "probe labelling, KiNativ, item: FYAVkVLQK peptide, LYS1 site", "test system": "brain tissue lysate (mouse)", "setting": "0.1 µM, added: ADP acyl-phosphate probe", "inhibition [%]": -2.5}
{"target or system": "MST2 (mouse)", "test": "KiNativ ATP probe", "test system": "mouse brain tissue", "setting": "1 µM, probe site LYS1", "inhibition [%]": -80.2}
{"target or system": "Mitogen-activated protein kinase kinase kinase 4 (Map3k4, Mus musculus, UniProt O08648)", "test": "KiNativ profiling", "test system": "mouse brain lysate", "setting": "0.1 µM, LYS1 site, added: ADP acyl phosphate probe", "inhibition [%]": -5.4}
{"target or system": "eEF2K (mouse)", "test": "probe labelling, inhibitor, KiNativ ActivX ATP probe", "test system": "mouse brain lysate", "setting": "1 µM, ATP loop peptide YIkYNSNSGFVR", "inhibition [%]": -9}
